Measured values pooled from the literature.
Parts stem from different laboratories: compare values within a part only. Positions count from the first letter of the parent shown.

Sample 1
Target: Histone acetyltransferase KAT6A, winged helix 1, GST fusion (KAT6A, Homo sapiens, UniProt Q92794, residues 1-85)
Technique: protein binding microarray
Molecule type: double-stranded DNA, one strand shown
Matrix: in vitro
Tested at: not given
Setting: 8-mer, flanks averaged, mean of 2 arrays, mostly near background
Relative to: not given
Reading: higher = stronger binding
Residues (chain): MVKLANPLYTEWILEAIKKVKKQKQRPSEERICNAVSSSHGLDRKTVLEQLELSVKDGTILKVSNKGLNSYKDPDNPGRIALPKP
Sequence | E-score
ATCGCAAA | 0.103
ACCAAGAC | 0.0199
ACGCTTAA | -0.0741
CTAGACTC | -0.0159
GTACTAAC | 0.07
CCCTTCCC | -0.143
ACTGGCCT | -0.0792
CCCGTCGC | 0.44
ATATGCAG | -0.176
AAAACACC | -0.0417
CGTTGGTC | -0.155
AAATAAAC | -0.0834
ATAGGGAC | -0.0439
GGCTTTAC | 0.162
CAACAGCA | -0.0842
ACACAATA | -0.183
AGTCGTTA | -0.14
ACATCTTC | -0.0684
CTTTTCGC | 0.0796
AACAGCTT | -0.158
GCTTATGA | -0.0689
AATAGATG | -0.117
AAAGTGTG | -0.238
GAGTCGGC | 0.212
GTAGTACA | -0.0447

Sample 2
Target: Interferon regulatory factor 7, full length, phosphomimetic (IRF7, Homo sapiens, UniProt Q92985, residues 1-503, S471D/S472D/S475D/S476D/S477D/S483D/S484D/S487D)
Technique: protein-binding microarray
Molecule type: double-stranded DNA, one strand shown
Matrix: in vitro
Tested at: 2200 nM top
Setting: 60-bp whole probe
With: salmon DNA 0.4 mg/ml
Relative to: random background probes
Reading: higher = stronger binding
All sequences stand within: GCCTAGCAC … GTCTTGATTCGCTTGACGCTGCTG
Target sequence (chain): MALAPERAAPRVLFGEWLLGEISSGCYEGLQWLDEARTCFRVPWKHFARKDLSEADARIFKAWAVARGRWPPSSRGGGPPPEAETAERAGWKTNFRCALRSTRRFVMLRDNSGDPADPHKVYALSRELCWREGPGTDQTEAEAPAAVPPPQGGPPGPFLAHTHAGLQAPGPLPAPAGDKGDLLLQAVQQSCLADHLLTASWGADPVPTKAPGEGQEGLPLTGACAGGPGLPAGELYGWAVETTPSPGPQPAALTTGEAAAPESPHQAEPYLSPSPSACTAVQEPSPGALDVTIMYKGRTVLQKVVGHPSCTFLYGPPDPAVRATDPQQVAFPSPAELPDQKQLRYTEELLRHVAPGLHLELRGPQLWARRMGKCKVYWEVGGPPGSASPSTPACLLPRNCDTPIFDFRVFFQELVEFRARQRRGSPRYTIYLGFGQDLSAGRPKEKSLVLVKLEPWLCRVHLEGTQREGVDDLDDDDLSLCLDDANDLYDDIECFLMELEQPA
Sequence | fitted relative affinity [z-score]
ATTTGTTTCCATTTTCTGAAGTGCTAG | 4.72
TTAGGACTGCTTTTCCTTTTGTGCTAG | 2.42
GACGATATCAGCCTCGAGACGTGCTAG | 0.431
TTAGGACTGGGTCTCGGTTCGTGCTAG | 0.505
GACTATATCAGACTGGAGACGTGCTAG | 0.171
GACGATATCGGGTATCGATACGTGCTA | 0.365
TCCTCTTTCACTGGTCCTCATGTGCTA | 2.85
CTCTGTCTGGGATGTAATTCCGTGCTA | 0.665
TTTGAACTGAGTCTCGATTAGTGCTAG | 0.0242
CTAGGTTTCCTTTTCCTTTAGTGCTAG | 6.97
CTTCCACTTAGGGTGGCTGGGTGCTAG | 0.68
TTAGGAGTGCTACTGCTTTAGTGCTAG | -0.453
TAAGGTATCGGGTATCGGTTAGTGCTA | 0.225
ACCACTCCAGTTCTGGGAAAGTGCTAG | 0.41
TTAGGTATCGACACCGGGTTAGTGCTA | -0.0271
GACGGTATCCTACTACTGACGTGCTAG | 0.799
TTAGATGTCAGTTCCGATTAGTGCTAG | 0.994

Sample 3
Target: Ras GTPase-activating protein-binding protein 1, C-terminal RGG region (G3BP1, Homo sapiens, UniProt Q13283)
Sequence of UniProt Q13283 (whole entry, looked up): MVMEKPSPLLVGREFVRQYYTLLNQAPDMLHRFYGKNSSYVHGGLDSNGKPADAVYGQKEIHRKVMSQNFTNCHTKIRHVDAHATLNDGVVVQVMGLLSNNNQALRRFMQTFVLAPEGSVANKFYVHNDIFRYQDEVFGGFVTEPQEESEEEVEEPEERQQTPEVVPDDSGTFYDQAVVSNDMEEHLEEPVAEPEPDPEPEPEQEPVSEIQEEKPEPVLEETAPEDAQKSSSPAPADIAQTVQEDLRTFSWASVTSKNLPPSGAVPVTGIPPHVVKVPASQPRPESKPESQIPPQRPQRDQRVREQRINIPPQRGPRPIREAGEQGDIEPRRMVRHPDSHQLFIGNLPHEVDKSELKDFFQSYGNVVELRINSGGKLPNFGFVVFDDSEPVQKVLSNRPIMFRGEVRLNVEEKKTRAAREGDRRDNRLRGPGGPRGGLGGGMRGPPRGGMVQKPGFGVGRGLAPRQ
Technique: RNA Bind-n-Seq
Molecule type: RNA
Matrix: in vitro
Tested at: 1 µM
Setting: whole 134-nt RNA, ends assumed
With: 150 mM KCl
Relative to: input library
Reading: higher = stronger binding
All sequences stand within: GGGAGUUCUACAGUCCGACGAUC … UGGAAUUCUCGGGUGUCAAGG
Sequence | log2 enrichment
UCAAGUCCUGUGCUACACAUCGUAUGUACCGAAUCGGGGCCGGGCCGGGGCCGGAAAGUAUUAUGUUACGCCGUUCGGAUCUGCACUUCC | -1.97
GCAGGAAGUAAAAACAAAUGGAAAUGCUUCGGAUAGUGGCAAAAGUGGGGGUUGCUAAGGAAAGGGUGGGAUGGGAGUGGGUAAAGAGUU | 1.82
UAACUUUAGAGGAGGAUCUGAUGGAUAUGGCAGUGGACGUGGACUUGGGGAUGGCUAUAAUGGGUAUGGAGGAGGACCUGGAGGUGGCAA | -0.384
UUCACAGCCAGCAGGCAUUGGAAUAUGGCACCAAACUCGUUGGAGGAACCACUCCAGGGAAAGGAGGCCAGACACAUCUGGGCUUACCUG | -1.18
UCCUGUGCUACACAUCGUAUGUACCGAAUCGGGGUUUUUGGGGUUUUUGGGGAAAGGGGAAAGUAUUAUGUUACGCCGUUCGGAUCUGCA | 1.91
CAAGUCCUGUGCUACACAUCGUAUGUACCGAAUCGGGUGGGUUUUUUUGGGAGGGAAAGUAUUAUGUUACGCCGUUCGGAUCUGCACUUC | 0.616
CUGUGCUACACAUCGUAUGUACCGAAUCGGGGAAAAAAGGGGAAAAAAGGGGAAAAAAGGGAAAGUAUUAUGUUACGCCGUUCGGAUCUG | -0.755
UCCUCAAGUCCUGUGCUACACAUCGUAUGUACCGAAUCGGAAAGGUGGUGGAAAGUAUUAUGUUACGCCGUUCGGAUCUGCACUUCCAGC | -1.01

Sample 4
Target: CCNE1, cyclin fold, Cln2 fusion (human)
Technique: yeast growth competition, sequencing
Matrix: yeast
Setting: weak parent motif
Relative to: not given
Reading: higher = stronger binding
Starting sequence: RB1 docking peptide (human); PKPLKKLRFDIEG
Change | normalised enrichment score
PVPLKKLRFDIEG [K2V] | 1.05
PGPLKKLRFDIEG [K2G] | -0.104
PKPLFKLRFDIEG [K5F] | 0.0897
PYPLKKLRFDIEG [K2Y] | 1.11
PKPLKVLRFDIEG [K6V] | 0.491
PKPLKKCRFDIEG [L7C] | 0.228
PKPLKKLRGDIEG [F9G] | 0.921
PKPLKKLRFDIEI [G13I] | 0.45
PKPIKKLRFDIEG [L4I] | 0.807
PKPLKKLRHDIEG [F9H] | -0.208
PKPEKKLRFDIEG [L4E] | -0.336
PKPLKKLRFDIEY [G13Y] | -0.622
PKPLKKLCFDIEG [R8C] | -0.158
PKYLKKLRFDIEG [P3Y] | -0.13
PKPLKKLRFDIEL [G13L] | 0.326
PQPLKKLRFDIEG [K2Q] | 0.233
EKPLKKLRFDIEG [P1E] | 0.753
PKPLKKLRFDIRG [E12R] | -0.0372

Sample 5
Target: Sal-like protein 4, full length isoform B (SALL4, Homo sapiens, UniProt Q9UJQ4-2, residues 1-616)
Technique: universal PBM
Molecule type: double-stranded DNA, one strand shown
Matrix: in vitro
Tested at: not given
Setting: 8-mer, flanks averaged, mean of replicates
Reading: higher = stronger binding
Sequence | E-score
AGTTAGTC | -0.146
AGAAAGTG | -0.0561
AATGAATC | 0.0802
ATCACCCG | -0.211
CAGATAGG | 0.035
ACTGGTAA | 0.141
CTATCATC | 0.194
GAGACTGC | -0.166
ATAGAAAG | 0.169
AAGATCAT | 0.228
CCGTATCG | -0.2
CCTATGAA | 0.135
CATCTCAA | 0.259
CAGATGGC | -0.117
GACTAGCA | -0.13
GCTACTAC | 0.166

A few entries again (sample 1):
Sequence | E-score
CCCGTCGC | 0.44
ATATGCAG | -0.176
AAAACACC | -0.0417
CGTTGGTC | -0.155
AAATAAAC | -0.0834
ATAGGGAC | -0.0439
GGCTTTAC | 0.162
